{"data": "Experimental data collected from several papers", "note": "Each line is one published result; not all experiments were run side by side. Numbers after ± are the reported error."}
{"Structure (SMILES)": "Cc1nc(NC(=O)N2CCC[C@H]2C(N)=O)sc1-c1csc(C(C)(C)C)n1", "system": "mouse SK-OV-3 xenograft, tumour", "setting": "intraperitoneal, 100 mg/kg single, 1 h", "measurement": "tumour concentration", "result": "22.7 ± 2.1 µM"}
{"Structure (SMILES)": "CC(F)C(=O)NC[C@@H]1O[C@H](C(=O)N[C@@H](CCC(=O)NCCCC[C@@H]2NC(=O)[C@@H](Cc3ccc(O)cc3)NC(=O)[C@H](CC(=O)O)NC(=O)CNC(=O)[C@H](CCCNC(=N)N)NC2=O)C(=O)NCCCC[C@@H]2NC(=O)[C@@H](Cc3ccc(O)cc3)NC(=O)[C@H](CC(=O)O)NC(=O)CNC(=O)[C@H](CCCNC(=N)N)NC2=O)[C@H](O)[C@H](O)[C@H]1O (some centres unmarked) [fluorine-18 labelled]", "assay": "microPET imaging", "system": "female athymic nude mouse, U-87 MG xenograft, U-87 MG tumour", "setting": "intravenous, 3.7 MBq, 2 h post-injection", "measurement": "tumour uptake", "result": "2.13 ± 0.17 %ID/g"}
{"Structure (SMILES)": "N=C(N)NCCC[C@@H]1NC(=O)[C@H](CCCCNC(=O)CC[C@H](NC(=O)CN2CCN(CC(=O)O)CCN(CC(=O)O)CCN(CC(=O)O)CC2)C(=O)NCCCC[C@@H]2NC(=O)[C@@H](Cc3ccccc3)NC(=O)[C@H](CC(=O)O)NC(=O)CNC(=O)[C@H](CCCNC(=N)N)NC2=O)NC(=O)[C@@H](Cc2ccccc2)NC(=O)[C@H](CC(=O)O)NC(=O)CNC1=O [indium-111 labelled]", "system": "female nude BALB/c mouse, SK-RC-52 xenograft, tumour", "setting": "intravenous, 2 h", "measurement": "tumour uptake", "result": "5.61 ± 0.85 %ID/g"}
{"Structure (SMILES)": "CCCC[C@H](NC(=O)[C@H](CCC(=O)O)NC(=O)CNC(=O)CN1CCN(CC(=O)O)CCN(CC(=O)O)CCN(CC(=O)O)CC1)C(=O)N[C@H]1CC(=O)NCCCC[C@@H](C(N)=O)NC(=O)[C@H](Cc2c[nH]c3ccccc23)NC(=O)[C@H](CCCNC(=N)N)NC(=O)[C@@H](Cc2ccccc2)NC(=O)[C@H](Cc2c[nH]cn2)NC1=O [indium-111 labelled]", "system": "C57 mouse, B16/F1 melanoma", "setting": "2 h", "scale": "baseline: tumour over skin", "measurement": "tumour to skin uptake ratio", "result": 24.3}
{"Structure (SMILES)": "CCCC[C@H](NC(=O)CNC(=O)CNC(=O)CN1CCN(CC(=O)O)CCN(CC(=O)O)CCN(CC(=O)O)CC1)C(=O)N[C@H]1CC(=O)NCCCC[C@@H](C(N)=O)NC(=O)[C@H](Cc2c[nH]c3ccccc23)NC(=O)[C@H](CCCNC(=N)N)NC(=O)[C@@H](Cc2ccccc2)NC(=O)[C@H](Cc2c[nH]cn2)NC1=O [gallium-67 labelled]", "system": "female C57 mouse B16/F1 melanoma", "setting": "intravenous, 0.037 MBq, 2 h", "measurement": "tumour to kidney ratio", "result": 2.87}
{"Structure (SMILES)": "CC[C@H](C)[C@H](NC(=O)[C@H](C)NC(=O)[C@H](CC(C)C)NC(=O)[C@H](Cc1ccc(O)c(I)c1)NC(C)=O)C(=O)NCCCCCC(=O)N1CCC[C@H]1C(=O)N[C@@H](C)C(=O)N[C@@H](CC(=O)O)C(=O)N[C@@H](CCC(=O)O)C(=O)N[C@H](C(=O)N[C@@H](CC(=O)O)C(=O)NCC(=O)N[C@@H](CCCNC(=N)N)C(=O)N[C@@H](CCCNC(=N)N)C(=O)N[C@@H](CCCNC(=N)N)C(=O)N[C@@H](CCCN)C(=O)N[C@@H](CCCNC(=N)N)C(=O)N[C@@H](CCCNC(=N)N)C(=O)N[C@@H](CCCCN)C(=O)N[C@@H](CCCCN)C(=O)N[C@@H](CCCNC(=N)N)C(=O)N[C@@H](CCCCNC(=O)CN1CCN(CC(=O)O)CCN(CC(=O)O)CCN(CC(=O)O)CC1)C(N)=O)C(C)C [iodine-125 labelled]", "system": "female BALB/c mouse, orthotopic 4T1 tumour, tumour over blood", "setting": "intravenous, 0.185 MBq, 1 h", "measurement": "tumour to tissue ratio", "result": "0.6 ± 0.03"}
{"Structure (SMILES)": "CC(F)C(=O)NC[C@@H]1O[C@H](C(=O)NCCCC[C@@H]2NC(=O)[C@@H](Cc3ccc(O)cc3)NC(=O)[C@H](CC(=O)O)NC(=O)CNC(=O)[C@H](CCCNC(=N)N)NC2=O)[C@H](O)[C@H](O)[C@H]1O (some centres unmarked) [fluorine-18 labelled]", "assay": "microPET imaging", "system": "female athymic nude mouse, U-87 MG xenograft, U-87 MG tumour", "setting": "intravenous, 3.7 MBq, 1 h post-injection", "measurement": "tumour uptake", "result": "1.47 ± 0.23 %ID/g"}
{"Structure (SMILES)": "O=C(O)CCC(NP(=O)(O)OCCC[C@@H](NC(=O)CC[C@H](NC(=O)CCCCCNC(=O)c1ccc([18F])cc1)C(=O)O)C(=O)O)C(=O)O (some centres unmarked)", "system": "mouse, CWR22Rv1 tumour xenograft, tumour", "setting": "dose not given, 4 h", "measurement": "tumour uptake retention", "result": "2.33%"}
{"Structure (SMILES)": "CC(F)C(=O)NC[C@@H]1O[C@H](C(=O)NCCCC[C@@H]2NC(=O)[C@@H](Cc3ccccc3)NC(=O)[C@H](CC(=O)O)NC(=O)CNC(=O)[C@H](CCCNC(=N)N)NC2=O)[C@H](O)[C@H](O)[C@H]1O (some centres unmarked) [fluorine-18 labelled]", "assay": "microPET imaging", "system": "female athymic nude mouse, U-87 MG xenograft, U-87 MG tumour", "setting": "intravenous, 3.7 MBq, 2 h post-injection", "measurement": "tumour uptake", "result": "0.9 ± 0.1 %ID/g"}
{"Structure (SMILES)": "Cc1cc(C)c(-c2[nH]nc(C)c2C)cc1C(=O)N1CC(c2ccc(C#N)cc2)C1", "assay": "mass spectrometry", "system": "mouse, Calu-6 xenograft, tumour", "setting": "oral, 60 mg/kg, 6 h after last dose", "measurement": "tumour concentration", "result": "5010 ng/g"}
{"Structure (SMILES)": "CC(F)C(=O)NCCOCCOCCOCC(=O)N[C@@H](CCC(=O)NCCCC[C@@H]1NC(=O)[C@@H](Cc2ccc(O)cc2)NC(=O)[C@H](CC(=O)O)NC(=O)CNC(=O)[C@H](CCCNC(=N)N)NC1=O)C(=O)NCCCC[C@@H]1NC(=O)[C@@H](Cc2ccc(O)cc2)NC(=O)[C@H](CC(=O)O)NC(=O)CNC(=O)[C@H](CCCNC(=N)N)NC1=O (some centres unmarked) [fluorine-18 labelled]", "system": "female athymic nude mouse, U-87 MG xenograft, U-87 MG tumour", "setting": "dose not given, 1 h", "measurement": "tumour uptake", "result": "2.3 ± 0.2 %ID/g"}
{"Structure (SMILES)": "CN1C(=O)[C@@H](Cc2ccc(O)cc2)NC(=O)CNC(=O)[C@H](Cc2ccc3ccccc3c2)NC(=O)[C@H](CCCNC(=N)N)NC(=O)[C@H]1CCCNC(=O)c1ccc(CNC(=O)CN2CCN(CC(=O)O)CCN(CC(=O)O)CCN(CC(=O)O)CC2)cc1 [gallium-68 labelled]", "system": "mouse, CB-17 SCID, female, SU-DHL-8 xenograft, tumour", "setting": "intravenous, 0.05 nmol, 90 min", "measurement": "tumour uptake", "result": "3.5 %ID/g"}
{"Structure (SMILES)": "CC(C)C[C@H](NC(=O)C[C@H](O)[C@H](CC(C)C)NC(=O)[C@H](Cc1c[nH]cn1)NC(=O)CNC(=O)[C@@H](NC(=O)[C@H](C)NC(=O)[C@H](Cc1c[nH]c2ccccc12)NC(=O)[C@H](CCC(N)=O)NC(=O)[C@@H](Cc1ccccc1)NC(=O)CCNC(=O)CCNC(=O)CN1CCN(CC(=O)O)CCN(CC(=O)O)CCN(CC(=O)O)CC1)C(C)C)C(N)=O [gallium-68 labelled]", "system": "mouse, PC-3 tumour xenograft, tumour", "setting": "intravenous, 200 pmol, 1 h", "measurement": "tumour uptake", "result": "9.9 ± 1.3 %ID/g"}
{"Structure (SMILES)": "CCCC[C@H](NC(=O)CN1CCC(NC(=O)CN2CCN(CC(=O)O)CCN(CC(=O)O)CCN(CC(=O)O)CC2)CC1)C(=O)N[C@H]1CC(=O)NCCCC[C@@H](C(N)=O)NC(=O)[C@H](Cc2c[nH]c3ccccc23)NC(=O)[C@H](CCCNC(=N)N)NC(=O)[C@@H](Cc2ccccc2)NC(=O)[C@H](Cc2c[nH]cn2)NC1=O [gallium-68 labelled]", "assay": "biodistribution", "system": "C57BL/6J mouse male tumour-bearing", "setting": "1 h post injection, unblocked", "scale": "baseline: tumour over blood", "measurement": "tumour to blood ratio", "result": "21.5 ± 14.6"}
{"Structure (SMILES)": "N=C(N)NCCC[C@@H]1NC(=O)[C@H](CCCCNC(=O)CC[C@H](NC(=O)[C@H]2O[C@@H](CNC(=O)c3ccc(F)cc3)[C@H](O)[C@@H](O)[C@H]2O)C(=O)NCCCC[C@@H]2NC(=O)[C@@H](Cc3ccc(O)cc3)NC(=O)[C@H](CC(=O)O)NC(=O)CNC(=O)[C@H](CCCNC(=N)N)NC2=O)NC(=O)[C@@H](Cc2ccc(O)cc2)NC(=O)[C@H](CC(=O)O)NC(=O)CNC1=O [fluorine-18 labelled]", "assay": "microPET imaging", "system": "female athymic nude mouse, U-87 MG xenograft, U-87 MG tumour", "setting": "intravenous, 3.7 MBq, 2 h post-injection", "measurement": "tumour uptake", "result": "1.75 ± 0.25 %ID/g"}
{"Structure (SMILES)": "CCCC[C@H](NC(=O)CNC(=O)CNC(=O)CN1CCN(CC(=O)O)CCN(CC(=O)O)CCN(CC(=O)O)CC1)C(=O)N[C@H]1CC(=O)NCCCC[C@@H](C(N)=O)NC(=O)[C@H](Cc2c[nH]c3ccccc23)NC(=O)[C@H](CCCNC(=N)N)NC(=O)[C@@H](Cc2ccccc2)NC(=O)[C@H](Cc2c[nH]cn2)NC1=O [indium-111 labelled]", "system": "C57 mouse, B16/F1 melanoma", "setting": "0.5 h", "scale": "baseline: tumour over skin", "measurement": "tumour to skin uptake ratio", "result": 8.51}
{"Structure (SMILES)": "COc1cccc2c1C(=O)c1c(O)c3c(c(O)c1C2=O)CC(O)(C(=O)CO)CC3OC1CC(NC(=O)C[C@H](N)C(=O)O)C(O)C(C)O1 (some centres unmarked)", "system": "BALB/c nude mouse, male, HCT-116 xenograft, tumour", "setting": "intravenous, 5 mg/kg, 1 h", "scale": "baseline: doxorubicin", "measurement": "tumour accumulation", "result": "6.4 fold"}
{"note": "For quick reference, copied from above:"}
{"Structure (SMILES)": "N=C(N)NCCC[C@@H]1NC(=O)[C@H](CCCCNC(=O)CC[C@H](NC(=O)[C@H]2O[C@@H](CNC(=O)c3ccc(F)cc3)[C@H](O)[C@@H](O)[C@H]2O)C(=O)NCCCC[C@@H]2NC(=O)[C@@H](Cc3ccc(O)cc3)NC(=O)[C@H](CC(=O)O)NC(=O)CNC(=O)[C@H](CCCNC(=N)N)NC2=O)NC(=O)[C@@H](Cc2ccc(O)cc2)NC(=O)[C@H](CC(=O)O)NC(=O)CNC1=O [fluorine-18 labelled]", "assay": "microPET imaging", "system": "female athymic nude mouse, U-87 MG xenograft, U-87 MG tumour", "setting": "intravenous, 3.7 MBq, 2 h post-injection", "measurement": "tumour uptake", "result": "1.75 ± 0.25 %ID/g"}
{"Structure (SMILES)": "CC(F)C(=O)NCCOCCOCCOCC(=O)N[C@@H](CCC(=O)NCCCC[C@@H]1NC(=O)[C@@H](Cc2ccc(O)cc2)NC(=O)[C@H](CC(=O)O)NC(=O)CNC(=O)[C@H](CCCNC(=N)N)NC1=O)C(=O)NCCCC[C@@H]1NC(=O)[C@@H](Cc2ccc(O)cc2)NC(=O)[C@H](CC(=O)O)NC(=O)CNC(=O)[C@H](CCCNC(=N)N)NC1=O (some centres unmarked) [fluorine-18 labelled]", "system": "female athymic nude mouse, U-87 MG xenograft, U-87 MG tumour", "setting": "dose not given, 1 h", "measurement": "tumour uptake", "result": "2.3 ± 0.2 %ID/g"}
